Measured values collected from several papers.
Every numbered part comes from another study and shows a few of its results, in no order. Positions count from the first letter of the parent shown.

Series 1
Target: Histone acetyltransferase KAT6A, winged helix 1, GST fusion (KAT6A, Homo sapiens, UniProt Q92794, residues 1-85)
Technique: protein binding microarray
Molecule type: double-stranded DNA, one strand shown
Medium: in vitro
Tested at: not given
Notes: 8-mer, flanks averaged, mean of 2 arrays, mostly near background
Reference: not given
Direction: higher = stronger binding
Construct (chain): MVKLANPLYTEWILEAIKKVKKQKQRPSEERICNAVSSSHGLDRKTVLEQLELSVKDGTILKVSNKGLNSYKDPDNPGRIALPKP
Oligonucleotide	E-score
CTCTGACC	-0.0775
GGGAAACC	0.11
AACTTACG	0.0977
ACGTCCGA	0.0687
CAATGCTC	-0.179
GAGTGTCC	-0.146
CAAGGTGA	-0.169
AAAAATCA	-0.0959
ATCTTTGC	-0.016
TACCACCA	-0.24
GCCACCAA	0.0102
CAACCCGC	0.372
GCTCCGAC	0.0763
CATTAAGC	-0.0855
CTTGCAGA	-0.0826
CGGGCTAC	0.176
CGAGTACA	-0.108
GCACCTTA	0.0315
GGTAATAC	0.0824
ACCGCACA	0.117
AACAACTC	-0.258
AAAACGTC	-0.116
CTAGAGGC	-0.0865

Series 2
Target: CCNF, cyclin fold, Cln2 fusion (human)
Technique: yeast growth competition, sequencing
Medium: yeast
Notes: strong parent motif
Reference: not given
Direction: higher = stronger binding
Starting sequence: RBL2 docking peptide (human); STTRRRLFVENDS
Change	normalised enrichment score
STTRRRLFVENDA [S13A]	8.4
STTARRLFVENDS [R4A]	7.29
STTRRRLFHENDS [V9H]	8.31
STTRARAFVENDS [R5A L7A]	-0.137
STTRRRLFVENDW [S13W]	7.7
STTRRRLKVENDS [F8K]	2.84
STARRRLFVENDS [T3A]	8.18
STHRRRLFVENDS [T3H]	4.93
STTRRRCFVENDS [L7C]	1.09
STTRRRLFEENDS [V9E]	7.35
STTKRRLFVENDS [R4K]	7.2
STTRRRLRVENDS [F8R]	2.1
STTVRRLFVENDS [R4V]	6.81
STTRRRYFVENDS [L7Y]	0.567
STTRRRNFVENDS [L7N]	-0.415
STTRRRLFVENGS [D12G]	8.3

Series 3
Target: Ras GTPase-activating protein-binding protein 1, RRM domain (G3BP1, Homo sapiens, UniProt Q13283)
Chain of UniProt Q13283 (whole entry, looked up): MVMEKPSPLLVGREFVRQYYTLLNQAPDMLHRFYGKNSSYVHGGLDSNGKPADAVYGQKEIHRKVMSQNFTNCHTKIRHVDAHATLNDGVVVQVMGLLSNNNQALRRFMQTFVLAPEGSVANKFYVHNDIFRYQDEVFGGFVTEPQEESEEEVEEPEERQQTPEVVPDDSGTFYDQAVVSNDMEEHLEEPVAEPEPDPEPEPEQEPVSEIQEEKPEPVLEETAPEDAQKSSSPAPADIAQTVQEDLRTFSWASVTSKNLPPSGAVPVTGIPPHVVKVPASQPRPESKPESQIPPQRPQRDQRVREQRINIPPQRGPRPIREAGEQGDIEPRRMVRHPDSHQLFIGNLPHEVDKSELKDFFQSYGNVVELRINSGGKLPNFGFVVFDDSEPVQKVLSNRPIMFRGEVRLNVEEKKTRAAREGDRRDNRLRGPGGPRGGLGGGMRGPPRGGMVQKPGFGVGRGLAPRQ
Technique: RNA Bind-n-Seq
Molecule type: RNA
Medium: in vitro
Tested at: 1 µM
Notes: whole 134-nt RNA, ends assumed
With: 150 mM KCl
Reference: input library
Direction: higher = stronger binding
Constant ends, left off below: GGGAGUUCUACAGUCCGACGAUC … UGGAAUUCUCGGGUGUCAAGG
Oligonucleotide	log2 enrichment
CAAGUCCUGUGCUACACAUCGUAUGUACCGAAUCGGGAGGGUUUGGGUUUUUGGGAAAGUAUUAUGUUACGCCGUUCGGAUCUGCACUUC	0.639
CACAGACAACACGCACCCACACAGACACAGAGGGAAGGGGUUGGGAUGGGAACAGGGUGCACAGCAGGGCGGGGUAGGACCCCAGCCCCU	0.042
UCCUGUGCUACACAUCGUAUGUACCGAAUCGGGCCCCCCGGGCCCCCCGGGCCCCCCGGAAAGUAUUAUGUUACGCCGUUCGGAUCUGCA	-0.51
AGUCCUGUGCUACACAUCGUAUGUACCGAAUCGGGUUUUUUUGGGAGGGUUUUUGGGAAAGUAUUAUGUUACGCCGUUCGGAUCUGCACU	0.286
GUCCUGUGCUACACAUCGUAUGUACCGAAUCAAACCCAAACCCCCCCAAAUUUUUAAAAAAGUAUUAUGUUACGCCGUUCGGAUCUGCAC	-0.164
UCAAGUCCUGUGCUACACAUCGUAUGUACCGAAUCGGGAAGGGAAGGGAAGGGGAAAGUAUUAUGUUACGCCGUUCGGAUCUGCACUUCC	1.11
AAGUCCUGUGCUACACAUCGUAUGUACCGAAUCGGAAAAGGGAAAAGGGGAAAAGGAAAGUAUUAUGUUACGCCGUUCGGAUCUGCACUU	-0.146
AAGUCCUGUGCUACACAUCGUAUGUACCGAAUCGGGGAGGGGUGGGGAAAAAGGGGAAAGUAUUAUGUUACGCCGUUCGGAUCUGCACUU	0.817
CUCAAGUCCUGUGCUACACAUCGUAUGUACCGAAUCGGGAAGGAAGGGGAAGGGAAAGUAUUAUGUUACGCCGUUCGGAUCUGCACUUCC	0.585
GUCCUGUGCUACACAUCGUAUGUACCGAAUCGGGAAAAAGGGUUUUUUUGGGUUUGGGAAAGUAUUAUGUUACGCCGUUCGGAUCUGCAC	-0.0491
UUACUAGAAAAGGCAGAAGCCCGUGAACGUGAAAGAGAAAAAGAAGAGGCUCGGAAGAUGAAACGAAAAGAAUCUGCAUUUAAGAGUAUG	0.0683
UCAAGUCCUGUGCUACACAUCGUAUGUACCGAAUCGGGUUUUUGGGAGGGAGGGAAAGUAUUAUGUUACGCCGUUCGGAUCUGCACUUCC	0.395
UGGCCCUGGUGGCCUGCGGGGAGGAAGAGGUGGCCUCAUGGAUCGUGGUGGUCCCGGUGGAAUGUUCAGAGGUGGCCGUGGUGGAGACAG	0.836
UCAAGUCCUGUGCUACACAUCGUAUGUACCGAAUCGGAAAAAGGAAAGGAAAGGAAAGUAUUAUGUUACGCCGUUCGGAUCUGCACUUCC	-0.291

Series 4
Target: Sal-like protein 4, full length isoform A (SALL4, Homo sapiens, UniProt Q9UJQ4, residues 1-1053)
Chain of UniProt Q9UJQ4 (whole entry, looked up): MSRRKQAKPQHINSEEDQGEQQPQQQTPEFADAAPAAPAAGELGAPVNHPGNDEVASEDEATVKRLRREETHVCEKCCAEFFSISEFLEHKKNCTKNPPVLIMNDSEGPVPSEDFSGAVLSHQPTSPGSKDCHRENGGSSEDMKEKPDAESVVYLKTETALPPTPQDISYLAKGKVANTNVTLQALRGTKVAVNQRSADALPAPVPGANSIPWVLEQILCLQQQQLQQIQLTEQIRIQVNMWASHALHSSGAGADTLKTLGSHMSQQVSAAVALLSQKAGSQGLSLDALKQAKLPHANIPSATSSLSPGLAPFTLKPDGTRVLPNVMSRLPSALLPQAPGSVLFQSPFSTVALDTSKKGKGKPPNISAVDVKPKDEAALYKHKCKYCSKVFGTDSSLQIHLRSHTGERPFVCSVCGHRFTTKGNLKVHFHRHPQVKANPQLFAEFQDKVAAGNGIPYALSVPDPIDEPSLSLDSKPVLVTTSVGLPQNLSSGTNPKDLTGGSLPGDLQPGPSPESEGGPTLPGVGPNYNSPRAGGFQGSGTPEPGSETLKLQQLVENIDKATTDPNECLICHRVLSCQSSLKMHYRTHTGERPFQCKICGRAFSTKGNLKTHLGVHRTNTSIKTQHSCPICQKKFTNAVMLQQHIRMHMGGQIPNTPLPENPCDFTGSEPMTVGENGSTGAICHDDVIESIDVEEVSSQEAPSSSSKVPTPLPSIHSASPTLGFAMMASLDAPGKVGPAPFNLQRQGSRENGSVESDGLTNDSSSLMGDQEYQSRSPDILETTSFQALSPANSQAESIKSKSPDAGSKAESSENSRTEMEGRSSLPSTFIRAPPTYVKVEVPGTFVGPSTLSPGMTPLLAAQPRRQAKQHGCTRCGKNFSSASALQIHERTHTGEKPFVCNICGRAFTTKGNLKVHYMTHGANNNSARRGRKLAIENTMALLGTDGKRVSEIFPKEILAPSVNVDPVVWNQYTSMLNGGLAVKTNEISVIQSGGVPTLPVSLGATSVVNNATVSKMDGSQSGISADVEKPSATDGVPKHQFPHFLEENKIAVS
Technique: universal PBM
Molecule type: double-stranded DNA, one strand shown
Medium: in vitro
Tested at: 600 nM
Notes: 8-mer, flanks averaged, mean of replicates
Direction: higher = stronger binding
Oligonucleotide	E-score
AGGGTGCG	-0.302
AACCCGAT	-0.0873
TCACATGA	0.138
CAGAGGAA	-0.104
GATGGCGA	0.0504
AACGCCTC	-0.213
CCCGCTTA	-0.156
CAAAATCA	0.189
GAATCTGA	0.0247
ACCGAACT	-0.178
AGAGTGGC	-0.156
GACTAATA	0.311
CCCCAATC	-0.187
ACTAACTA	0.0672
CGTTCATC	-0.0302
CGCGTTCC	-0.31
CGCTAGGC	-0.256
AAACATGT	0.226
TAGTGCGA	-0.0424
CTAGATAA	0.239
CTTTAACC	0.0877
GGCACTAA	-0.0958
ACGCAGCA	-0.187
CCAGGCCC	-0.361
CTAGAAGA	0.0891

Series 5
Target: RNA binding protein fox-1 homolog 2, RRM domain, GST-SBP tag (RBFOX2, Homo sapiens, UniProt O43251-10, residues 100-194)
Technique: RNA Bind-n-Seq
Molecule type: RNA
Medium: in vitro
Tested at: 365 nM
Notes: natural RNA segment, single round, ends assumed
Reference: no-protein control
Direction: higher = stronger binding
Constant ends, left off below: GGGAGUUCUACAGUCCGACGAUC … UGGAAUUCUCGGGUGCCAA
Construct (chain): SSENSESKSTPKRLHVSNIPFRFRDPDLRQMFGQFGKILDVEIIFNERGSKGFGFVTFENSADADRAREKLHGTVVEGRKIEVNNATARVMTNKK
Oligonucleotide	RBNS enrichment (R)
UACCCUAUUUUUAAGAAGUAGGUAUCAGGUACAGCCAGUGUUUUCAUUGUCUGAUUAAAACAGUUUAUAUGUUGUUGUUAGCUCAUUUAAAGCUACAUCAUGCUGUAGUG	0.271
AAACAUUCUGGAGUAUGUAUAGCUUUAAUGAAUGAAAUUUAAUGGACCUGAUUAAAAUGAAGGGAUUUAAUCGUUGUUAAAGUUAAGUUAGUCAAAUAAAUUACCUACUG	0.675
GAUCCACUGAUGGCCCUGGCCCCUGCUGGGGCGGGGCAGGAGGCAGCCCUGCUCCUUGCCUUUUGCAUUGUCAUUCCUCCCCUCUGUCCAGGUCAUUCCUUGGCUAAGCC	0.478
UGUGCCAGUUAUAGACUGUCCAGCAUCCAAGACGUUUCGGUUAUGUCGGGUCCUCAGAUCGCCUCUGACUUGUUACCACAACAAAUCAUUUUGAUUUCAGUGCCUGUUGG	0.39
UUGAAUAUCAGGAGGGACUUUCUACGCCCUGGUGACUUCACGUUGGAAGCCGGGUCUUGCGAGCUGGAGAAAUGGACUGGAUGAGGGCUCUAGGGGUGGGCUGUUUACAC	0.753
UCAGGAGGACAGGACGCUGCUUUAGGGAAGUAUCAAAUUCCGUAUUGAAGAAAAGCUUUCAGAGGGCAUGUAUAGGAAGUGAUUUUGGGGAAGUCGUUUUUUGUUUGUUU	3.17
CAGAGUCCUGCCUAGGGCACCCGGGGAAGCCCGUCCCCACUUCCCCACUCUGUAAGUGUUUUGGAGUCUGACUAUUGCAGACACCCUCUGGCUGGGCUGCUCAGGGUGAC	0.849
CCCUUUCACCCCUCUGCAAAACAAACAAGCAACAUCCUCAAAACCCAACCCCAUGCCUCACAGAGCUUCCUGUGGCUUCUCCAGCCUUUCUCCCUCACAUCAGGAGGUAG	0.994
UUUCCUGCCUUACACAGAGCAGUAGCAUACCAUCCCUCUGGAGGGUAGGGGACCCCUGCGGUUCCAGCCUCUUAGCCUUGGUUUGUUGGUCACAUAGCACUGUUAAAUUU	0.224
CGUGGGGCCUUUCCUUCUCGGCUGGUUCUCUGUGACGGUGGCGUCGGCUCGCCUCUGCUCCUUUCAUCUAGAAAGAAGCCACUGACCCUGACAGCCCACGGCGGGUACAC	0.268
UAAACCUCCAGCCACCAAGCCUGACGCCAGUCUCUUCUGAUCUGCAAGAUUUGGGCUGUGUGCAAGGUGGCUUUCUUUCCUGGUGGGGGAAGGGAGGGGCCGAGGCUAAU	0.587
CCAUCUGUGUCCAGCGGCCCCGGCUCCAGCCCAGCCAGCACUCUGCAGGGUCACACGCACCGUGUCCCCACCCAGGACAGCAGACACCCGCCAGAGUGUGCGCGCCCAGU	0.351

Some of these lines once more (series 2):
Change	normalised enrichment score
STTARRLFVENDS [R4A]	7.29
STTRRRLFHENDS [V9H]	8.31
STTRARAFVENDS [R5A L7A]	-0.137
STTRRRLFVENDW [S13W]	7.7
STTRRRLKVENDS [F8K]	2.84
STARRRLFVENDS [T3A]	8.18
STHRRRLFVENDS [T3H]	4.93
STTRRRCFVENDS [L7C]	1.09
STTRRRLFEENDS [V9E]	7.35
STTKRRLFVENDS [R4K]	7.2
STTRRRLRVENDS [F8R]	2.1
STTVRRLFVENDS [R4V]	6.81
STTRRRYFVENDS [L7Y]	0.567
STTRRRNFVENDS [L7N]	-0.415
STTRRRLFVENGS [D12G]	8.3
